Published values gathered from unrelated publications.
Each line is one published result; not all experiments were run side by side. Several values in a cell are separate wells, animals, samples, runs or records. ± marks the error that the study gave.

O=C1NC2(CC2)COc2ncc(F)cc2[C@H]2COCCN2c2ccn3ncc1c3n2
serum urea (Sprague-Dawley rat, male, serum; oral, 2.5 mg/kg/day, end of treatment, 4-week subacute toxicity): 4.14 ± 0.84 mmol/L

CC[C@H](C)[C@H](NC(=O)[C@H](CCCCN)NC(=O)CNC(=O)[C@H](CC(C)C)NC(=O)[C@H](Cc1ccccc1)NC(=O)[C@H](CCCCN)NC(=O)[C@H](CO)NC(=O)[C@H](Cc1ccccc1)NC(=O)[C@H](Cc1c[nH]c2ccccc12)NC(=O)[C@H](CCC(N)=O)NC(=O)[C@@H](NC(=O)[C@H](Cc1ccccc1)NC(=O)CCCCCNC(=O)CN1CCN(CC(=O)O)CCN(CC(=O)O)CCN(CC(=O)O)CC1)C(C)C)C(=O)N[C@@H](CCC(=O)O)C(=O)N1CCC[C@H]1C(=O)N[C@@H](CC(=O)O)C(=O)N[C@H](C(=O)N[C@@H](CO)C(=O)N[C@@H](CCC(N)=O)C(=O)N[C@H](C(=O)N[C@@H](CCC(N)=O)C(=O)N[C@@H](CC(=O)O)C(=O)N1CCC[C@H]1C(=O)N[C@@H](CC(N)=O)C(=O)N[C@@H](CC(=O)O)C(=O)N[C@@H](CCC(N)=O)C(=O)N[C@@H](Cc1ccc(O)cc1)C(=O)N[C@@H](CCC(=O)O)C(=O)N1CCC[C@H]1C(=O)N[C@@H](Cc1ccccc1)C(=O)O)C(C)C)C(C)C [copper-64 labelled]
tissue uptake (GZMB-/- mice, CT26 tumour-bearing, liver; 2 h, checkpoint inhibitor-treated): 8.35 ± 1.6 %ID/g

CCCCCCCCCCCCCCCC(=O)N[C@@H](CCC(=O)NCCOCCOCCC(=O)NCCOCCOCCC(=O)NCCCC[C@H](NC(=O)[C@H](CC(=O)O)NC(=O)[C@H](CC(C)C)NC(=O)[C@H](Cc1ccc(O)cc1)NC(=O)[C@H](CCCCN)NC(=O)[C@H](CO)NC(=O)[C@H](Cc1ccc(O)cc1)NC(=O)[C@H](CC(=O)O)NC(=O)[C@H](CO)NC(=O)[C@@H](NC(=O)[C@H](Cc1ccccc1)NC(=O)[C@@H](NC(=O)CNC(=O)[C@H](CCC(N)=O)NC(=O)[C@@H](CO)NC(=O)[C@@H](N)Cc1c[nH]cn1)[C@@H](C)O)[C@@H](C)O)C(=O)N[C@@H](CCCNC(=N)N)C(=O)N[C@@H](CCCNC(=N)N)C(=O)N[C@@H](C)C(=O)N[C@@H](CCC(N)=O)C(=O)N[C@@H](CC(=O)O)C(=O)N[C@@H](Cc1ccccc1)C(=O)N[C@H](C(=O)N[C@@H](CCC(N)=O)C(=O)N[C@@H](Cc1c[nH]c2ccccc12)C(=O)N[C@@H](CC(C)C)C(=O)N[C@@H](CC(C)C)C(=O)N[C@@H](CC(N)=O)C(=O)N[C@H](C(=O)NCC(=O)NCC(=O)N1CCC[C@H]1C(=O)N[C@@H](CO)C(=O)N[C@@H](CO)C(=O)NCC(=O)N[C@@H](C)C(=O)N1CCC[C@H]1C(=O)N1CCC[C@H]1C(=O)N1CCC[C@H]1C(=O)N[C@@H](CO)C(N)=O)[C@@H](C)O)C(C)C)C(=O)O
total cholesterol (Sprague-Dawley rat, female; subcutaneous, 500 µg/kg once daily, 14 days): 0.61 ± 0.18 mmol/L

CC(=O)NCCCC[C@@H]1NC(=O)[C@H](Cc2c[nH]c3c(C)cccc23)NC(=O)[C@H]([C@@H](C)O)NC(=O)[C@H](CC(N)=O)NC(=O)[C@@H](NC(C)=O)C(C)(C)SSC(C)(C)[C@@H](C(=O)N[C@@H](Cc2ccc(OCCN)cc2)C(=O)N[C@@H](Cc2ccc3ccccc3c2)C(=O)NC2(C(=O)N[C@@H](CCC(=O)O)C(=O)N[C@@H](CC(N)=O)C(=O)N[C@@H](Cc3cccnc3)C(=O)N(C)CC(N)=O)CCOCC2)NC1=O
unbound fraction (equilibrium dialysis; albumin plus glycoprotein; 0.1 µM, albumin 4%, glycoprotein 0.07%): 74.2 ± 3.2%

CCN(CC)CCOc1ccc(-c2nnn(Cc3ccc(OC)cc3)c2N)cc1
remaining compound (monkey liver microsomes; concentration not given, time not given): 43.8%

CSCC[C@H](N)C(=O)N[C@@H](C)C(=O)N[C@@H](Cc1c[nH]c2ccccc12)C(=O)N[C@@H](Cc1c[nH]cn1)C(=O)N[C@@H](CC(=O)O)C(=O)N[C@@H](CC(=O)O)C(=O)N[C@@H](CCC(=O)O)C(=O)N[C@@H](CCC(=O)O)C(=O)N[C@@H](Cc1ccccc1)C(=O)N[C@@H](C)C(=O)N[C@@H](CCCNC(=N)N)C(=O)N[C@@H](CCCNC(=N)N)C(=O)N[C@@H](CCCNC(=N)N)C(=O)N[C@@H](CCCNC(=N)N)C(=O)NCCCCCC(=O)NCCCCC(NC(=O)CCCCCNC(=O)[C@H](CCCNC(=N)N)NC(=O)[C@H](CCCNC(=N)N)NC(=O)[C@H](CCCNC(=N)N)NC(=O)[C@H](CCCNC(=N)N)NC(=O)[C@H](C)NC(=O)[C@H](Cc1ccccc1)NC(=O)[C@H](CCC(=O)O)NC(=O)[C@H](CCC(=O)O)NC(=O)[C@H](CC(=O)O)NC(=O)[C@H](CC(=O)O)NC(=O)[C@H](Cc1c[nH]cn1)NC(=O)[C@H](Cc1c[nH]c2ccccc12)NC(=O)[C@H](C)NC(=O)[C@@H](N)CCSC)C(=O)NCCCCC(NC(=O)C(CCCCNC(=O)CCCCCNC(=O)[C@H](CCCNC(=N)N)NC(=O)[C@H](CCCNC(=N)N)NC(=O)[C@H](CCCNC(=N)N)NC(=O)[C@H](CCCNC(=N)N)NC(=O)[C@H](C)NC(=O)[C@H](Cc1ccccc1)NC(=O)[C@H](CCC(=O)O)NC(=O)[C@H](CCC(=O)O)NC(=O)[C@H](CC(=O)O)NC(=O)[C@H](CC(=O)O)NC(=O)[C@H](Cc1c[nH]cn1)NC(=O)[C@H](Cc1c[nH]c2ccccc12)NC(=O)[C@H](C)NC(=O)[C@@H](N)CCSC)NC(=O)CCCCCNC(=O)[C@H](CCCNC(=N)N)NC(=O)[C@H](CCCNC(=N)N)NC(=O)[C@H](CCCNC(=N)N)NC(=O)[C@H](CCCNC(=N)N)NC(=O)[C@H](C)NC(=O)[C@H](Cc1ccccc1)NC(=O)[C@H](CCC(=O)O)NC(=O)[C@H](CCC(=O)O)NC(=O)[C@H](CC(=O)O)NC(=O)[C@H](CC(=O)O)NC(=O)[C@H](Cc1c[nH]cn1)NC(=O)[C@H](Cc1c[nH]c2ccccc12)NC(=O)[C@H](C)NC(=O)[C@@H](N)CCSC)C(N)=O (some centres unmarked)
tissue distribution (C57BL/6 mouse female, heart; dose not given, 3 h; baseline: total): 1.03% and 0.73% and 0.84%

N#[11C]c1ccc(-c2csc(NN=C3CCCC3)n2)cc1
radioactivity uptake (C57BL/6 mice, male, heart; intravenous, 3 MBq, 5 min): 4.7 ± 0.38 %ID/g

CC(C)Oc1c(NC(=O)c2ccc(NC(=O)[C@H](CC(N)=O)NC(=O)c3ccc(/N=N/c4ccccc4)cc3)cc2)ccc(C(=O)N/N=C/c2ccc(C(=O)O)cc2)c1O
thermal half-life (absorbance; DMSO; 30 °C, PSS to ground state relaxation): 74 h

CN[C@H](CC(C)C)C(=O)N[C@H]1C(=O)N[C@@H](CC(N)=O)C(=O)N[C@H]2C(=O)N[C@H]3C(=O)N[C@H](C(=O)N[C@H](C(=O)O)c4cc(O)cc(O)c4-c4cc3ccc4O)[C@H](O)c3ccc(c(Cl)c3)Oc3cc2cc(c3O[C@@H]2O[C@H](CO)[C@@H](O)[C@H](O)[C@H]2O[C@H]2C[C@](C)(NCc3ccc(-c4ccc(Cl)cc4)cc3)[C@H](O)[C@H](C)O2)Oc2ccc(cc2Cl)[C@H]1O
MTD (mouse; intravenous): 75 mg/kg

COC(=O)[C@H]1[C@@H](c2ccc(Cl)c(Cl)c2)C[C@@H]2CC[C@H]1N2CCOc1ccc2cc3ccccc3cc2c1
pKa (fluorometric titration; 1 µM, 10% DMSO): 6.6

C[C@H](O)[C@@H](NC(=O)[C@H]1CCCN1C(=O)[C@@H](CCCCN)NC(=O)[C@@H](CO)NC(=O)[C@@H](Cc1ccc(O)cc1)NC(=O)[C@@H](CC(N)=O)NC(=O)CCOCCOCCOCCNC(=O)CN1CCN(CC(=O)O)CCN(CC(=O)O)CCN(CC(=O)O)CC1)C(=O)N[C@H](CC(=O)O)C(=O)N[C@H](CCCNC(=N)N)C(=O)N[C@H](CCC(N)=O)C(=O)N[C@H](Cc1ccc(O)cc1)C(=O)N[C@H](Cc1c[nH]cn1)C(=O)N[C@H](Cc1ccccc1)C(N)=O [copper-64 labelled]
tissue uptake (ex vivo gamma counting; C57BL/6J mouse, male, normal, testis; intravenous, 1.85 MBq, 20 min): 0.66 ± 0.05 %ID/g

C=Cc1c(C)c2cc3nc(c(CC(=O)[O-])c4[n-]c(cc5nc(cc1[n-]2)C(C)=C5CC)c(C)c4C(=O)[O-])C(CCC(=O)[O-])C3C.[Cu+2].[Na+].[Na+].[Na+] (centres unmarked)
serum creatinine (Wistar rat, female; oral, 250 mg/kg daily, 28 days): 0.45 ± 0.14 mg/dL

COc1cnc2cccc(N3CCc4c(cc(Cn5ccnc5)cc4-c4cn(C)nc4C(F)(F)F)C3=O)c2c1
body weight (CD-1 mice; intraperitoneal, 100 mg/kg once daily, day 3): 29.4 ± 0.8 g

CN1Cc2cc(Cl)ccc2-n2c(nnc2C2CCN(c3cccc(F)n3)CC2)C1
AUC (Sprague-Dawley rat male, pituitary; intravenous, 0.03 mg/kg): 18.9 ng·h/mL

O=C(c1cc(Cc2n[nH]c(=O)c3ccccc23)ccc1F)N1CC(CNC2CC2)C1
AUC(0-inf) (female CD-1 mouse, plasma; intravenous, 20 mg/kg): 3030 ng·h/mL

CC[C@H](C)[C@H](NC(=O)CNC(=O)[C@H](Cc1c[nH]cn1)NC(=O)[C@H](CC(C)C)NC(=O)CNC(=O)[C@H](CC(C)C)NC(=O)[C@H](CCCCN)NC(=O)[C@H](Cc1ccccc1)NC(=O)[C@H](CC(C)C)NC(=O)[C@H](CCCCN)NC(=O)CNC(=O)[C@H](Cc1c[nH]c2ccccc12)NC(=O)[C@H](Cc1ccccc1)NC(=O)CN)C(=O)NCC(=O)N[C@@H](CC(C)C)C(=O)N[C@@H](CC(C)C)C(=O)N[C@@H](Cc1c[nH]cn1)C(=O)N[C@@H](CC(C)C)C(=O)N[C@@H](Cc1c[nH]cn1)C(=O)N[C@@H](CC(C)C)C(N)=O
chronic toxic concentration (zebrafish embryos 28 hpf, E3 medium; 24 h): 1 µM

N=C(N)NCCC[C@@H](NC(=O)[C@H](N)Cc1c[nH]c2ccccc12)C(=O)N[C@H](CCCCN)C(=O)N[C@H](Cc1c[nH]c2ccccc12)C(=O)N[C@H](CCCNC(=N)N)C(=O)N[C@H](CCCCN)C(=O)N[C@H](Cc1c[nH]c2ccccc12)C(=O)N[C@H](CCCNC(=N)N)C(=O)N[C@H](CCCCN)C(=O)N[C@H](Cc1c[nH]c2ccccc12)C(=O)N[C@H](CCCNC(=N)N)C(=O)N[C@H](CCCCN)C(N)=O
survival (mouse; intraperitoneal, 20 mg/kg single dose, day 7): 100%

A few entries again:
N#[11C]c1ccc(-c2csc(NN=C3CCCC3)n2)cc1
radioactivity uptake (C57BL/6 mice, male, heart; intravenous, 3 MBq, 5 min): 4.7 ± 0.38 %ID/g

CC(C)Oc1c(NC(=O)c2ccc(NC(=O)[C@H](CC(N)=O)NC(=O)c3ccc(/N=N/c4ccccc4)cc3)cc2)ccc(C(=O)N/N=C/c2ccc(C(=O)O)cc2)c1O
thermal half-life (absorbance; DMSO; 30 °C, PSS to ground state relaxation): 74 h
